Assay results collected from several papers.
Lines come from different studies, so protocols differ.
Chain of UniProt Q53GS9 (whole entry, looked up): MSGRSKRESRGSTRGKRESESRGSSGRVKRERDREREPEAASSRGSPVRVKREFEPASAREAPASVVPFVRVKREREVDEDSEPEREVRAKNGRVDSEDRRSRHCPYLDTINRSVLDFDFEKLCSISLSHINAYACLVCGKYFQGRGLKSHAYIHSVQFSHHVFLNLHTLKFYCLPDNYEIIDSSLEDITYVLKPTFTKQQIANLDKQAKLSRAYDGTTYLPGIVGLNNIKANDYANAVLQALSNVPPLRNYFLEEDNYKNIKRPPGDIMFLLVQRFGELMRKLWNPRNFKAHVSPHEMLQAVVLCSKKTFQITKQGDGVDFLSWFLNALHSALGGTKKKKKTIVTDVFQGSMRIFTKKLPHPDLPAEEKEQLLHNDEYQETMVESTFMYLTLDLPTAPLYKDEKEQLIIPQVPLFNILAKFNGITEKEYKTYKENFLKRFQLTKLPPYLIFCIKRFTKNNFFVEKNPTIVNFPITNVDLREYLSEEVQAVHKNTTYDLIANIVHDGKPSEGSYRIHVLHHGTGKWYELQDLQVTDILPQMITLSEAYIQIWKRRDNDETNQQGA

OCCn1cc(-c2ccc3c(c2)CC/C3=N\O)c(-c2ccncc2)n1  cell index (iCell Cardiomyocytes (hiPSC-derived); cellular impedance; concentration not given, 24 h; reference: control): 92.1%
O=C(O)CNC(=O)c1ccccc1  z-scored log2 fold change (binding, equilibrium dialysis LC-MS; 5 µM, thermostabilized A2AR-BRIL construct; reference: no-protein control, direction not given): -1.11
C=CC(=O)N1CC/C(=C\c2ccc(F)c([N+](=O)[O-])c2)C(=O)/C(=C/c2ccc(F)c([N+](=O)[O-])c2)C1  selectivity index (human alphaherpesvirus 1; primary human keratinocytes, K26 GFP; reference: CC50 over IC50): 1.43
O=C(O)CCc1ccno1  Kd (Ubiquitin carboxyl-terminal hydrolase 39, ZnF-UBD domain (Homo sapiens, UniProt Q53GS9)): > 1000 µM
C[C@H](Oc1ccc(Br)cc1-c1ccon1)C(=O)O  peak amplitude change (muscle velocity recovery cycles; human, tibialis anterior muscle; 1200 mg single dose, 3.5 h post-dose, frequency ramp, first response at 15 Hz): 120%
c1coc(-c2n[nH]cc2-c2ccnc3ccccc23)c1  log2 fold change (SSK2 (Candida albicans); kinase binding, MIB/MS competition; Candida albicans lysate; 10 µM; reference: DMSO): -0.16
CCOc1cc2ncc(C#N)c(Nc3ccc(F)c(Cl)c3)c2cc1NC(=O)/C=C/CN(C)C  inhibition (NLRP3 inflammasome (mouse); mouse BMDM; 10 µM): 83.6%
O=C(O)C(O)c1ccccc1 (racemic)  z-scored log2 fold change (binding, equilibrium dialysis LC-MS; 5 µM, thermostabilized A2AR-BRIL construct; reference: no-protein control, direction not given): 0.438
CCc1nc(C(N)=O)c(Nc2ccc(N3CCC(N4CCN(C)CC4)CC3)c(OC)c2)nc1NC1CCOCC1  inhibition (NLRP3 inflammasome (mouse); mouse BMDM; 10 µM): -80.9%
OC(CCN1CCCCC1)(c1ccccc1)C1CC2C=CC1C2 (centres unmarked)  change, Gamma EEG power, in O2-Pz (resting-state EEG; healthy elderly humans; oral, 2 mg, eyes open, LS mean; reference: baseline): 7.9%
COc1cc2nccc(Oc3ccc(NC(=O)NC4CC4)c(Cl)c3)c2cc1C(N)=O  inhibition (NLRP3 inflammasome (mouse); mouse BMDM; 10 µM): -21.6%
Cn1cc(-c2ccc(-c3cncc(Cl)c3N3CCC4(CCNC4=O)CC3)cc2)cn1  log2 fold change (COLO 205; gene expression, microarray, refers to: HIST1H4C mRNA; concentration not given, 6 h; reference: untreated cells): -2.32
O=C1OC(C(O)CO)C(=O)C1=O (centres unmarked)  z-scored log2 fold change (binding, equilibrium dialysis LC-MS; 5 µM, thermostabilized A2AR-BRIL construct; reference: no-protein control, direction not given): 0.0422
Cc1c(CN2CCN(C(=O)[C@H](C)O)CC2)sc2c(N3CCOCC3)nc(-c3cnc(N)nc3)nc12  inhibition (NLRP3 inflammasome (mouse); mouse BMDM; 10 µM): 0.13%
OC[C@H]1O[C@H](OC[C@H]2O[C@H](OC[C@H]3O[C@H](O[C@]4(CO)O[C@H](CO)[C@@H](O)[C@@H]4O)[C@H](O)[C@@H](O)[C@@H]3O)[C@H](O)[C@@H](O)[C@H]2O)[C@H](O)[C@@H](O)[C@H]1O  z-scored log2 fold change (binding, equilibrium dialysis LC-MS; 5 µM, thermostabilized A2AR-BRIL construct; reference: no-protein control, direction not given): 0.572
Cn1c(Nc2ccc(C(F)(F)F)cc2)nc2cc(Oc3ccnc(-c4ncc(C(F)(F)F)[nH]4)c3)ccc21  cell index (iCell Cardiomyocytes (hiPSC-derived); cellular impedance; concentration not given, 24 h; reference: control): 90.8%
Nc1ncnc2c1ncn2[C@@H]1O[C@H](COP(=O)(O)OS(=O)(=O)O)[C@@H](OP(=O)(O)O)[C@H]1O  z-scored log2 fold change (binding, equilibrium dialysis LC-MS; 5 µM, thermostabilized A2AR-BRIL construct; reference: no-protein control, direction not given): -0.371
CS(=O)(=O)CCNCc1ccc(-c2ccc3ncnc(Nc4ccc(OCc5cccc(F)c5)c(Cl)c4)c3c2)o1  inhibition (NLRP3 inflammasome (mouse); mouse BMDM; 10 µM): 9.7%
O=C(O)c1ccoc1  z-scored log2 fold change (binding, equilibrium dialysis LC-MS; 5 µM, thermostabilized A2AR-BRIL construct; reference: no-protein control, direction not given): -0.366
C[C@@H](Oc1cc(-n2cnc3ccc(CN4CCN(C)CC4)cc32)sc1C(N)=O)c1ccccc1C(F)(F)F  cell index (iCell Cardiomyocytes (hiPSC-derived); cellular impedance; concentration not given, 24 h; reference: control): 97.7%
